{"data": "Measured values of several laboratories", "organism": "Staphylococcus aureus", "note": "Each line is one published result; not all experiments were run side by side. Several values in a cell are separate wells, animals, samples, runs or records. ± marks the error that the study gave."}
{"SMILES": "CC[C@H](C)[C@@H]1NC(=O)[C@@H](CCCNC(=N)N)NC(=O)[C@@H](NC(=O)[C@@H](CC(C)C)NC(=O)[C@H](C)NC(=O)[C@H](C)NC(=O)[C@@H]2CCCN2C(=O)[C@@H](CC(C)C)NC(=O)[C@@H](NC(=O)[C@@H](CCCNC(=N)N)NC(=O)[C@@H](CC(C)C)NC(=O)[C@@H](CC(C)C)NC(=O)[C@@H](NC(=O)[C@@H](CCCNC(=N)N)NC(=O)[C@@H](CC(C)C)NC(=O)[C@@H](NC(=O)[C@@H](NC(=O)CNC(=O)[C@@H](CC(C)C)NC(=O)[C@@H](N)Cc2ccccc2)[C@@H](C)O)C(C)C)C(C)C)C(C)C)CSSC[C@@H](C(=O)O)NC(=O)[C@@H](CCCNC(=N)N)NC(=O)[C@@H](CCCNC(=N)N)NC(=O)[C@H](Cc2ccccc2)NC1=O", "test system": "MRSA NCTC 12493, Galleria mellonella larvae", "conditions": "16 mg/kg, titanium implant biofilm infection", "quantity": "survival rate", "value": "70%"}
{"SMILES": "CC1COC2=C1C(=O)C(=O)c1c2ccc2c1C(OC(=O)CNC(=O)C(N)CO)CCC2(C)C (mixture of isomers)", "conditions": "10 µmol/mL, 48 h, 10 µL on 6 mm disc", "quantity": "inhibition zone diameter", "value": "25 ± 0.9 mm"}
{"SMILES": "CC1CCN(C(=O)c2cccc(NC(=O)Nc3ccc(Cl)cc3)c2)CC1", "assay": "checkerboard", "test system": "CRB, PBP4 overexpressor", "conditions": "25 µM, with: ceftobiprole", "scale": "baseline: ceftobiprole alone over combination", "quantity": "MIC fold reduction", "value": "16 and > 8"}
{"SMILES": "Cc1ccc2nc(C)c(CC(=O)NCc3ccc(N(C)C)cc3)n2c1", "assay": "microbial growth", "test system": "SG511", "conditions": "2 mM, 20 h", "quantity": "inhibition zone", "value": "0 mm"}
{"SMILES": "CCCNC(=O)[C@@H]1Cc2ccc(cc2)Oc2cc(ccc2O)[C@@H](NC(=O)[C@H](NC(=O)[C@H](CC(N)=O)NC(=O)[C@@H](Cc2ccc(O)cc2)NC(=O)[C@@H](CC(C)C)NC)c2ccccc2)C(=O)N[C@@H](Cc2ccccc2)C(=O)N1", "assay": "bacterial growth", "quantity": "IC50", "value": "> 40 µM"}
{"SMILES": "CC[C@H](C)[C@@H]1NC(=O)[C@H](CO)NC(=O)[C@H](CCCCN)NC(=O)[C@@H]2CSSC[C@@H](C(=O)N[C@@H](Cc3ccc(O)cc3)C(N)=O)NC(=O)[C@H](CCCCN)NC(=O)[C@@H]3CSSC[C@H](NC(=O)[C@H](CCCNC(=N)N)NC(=O)[C@H](CC(C)C)NC(=O)[C@H](CC(=O)O)NC(=O)[C@H](CC(=O)O)NC(=O)[C@H](CCC(=O)O)NC(=O)[C@H](CC(N)=O)NC(=O)[C@H](Cc4c[nH]c5ccccc45)NC(=O)[C@@H]4CCCN4C(=O)CNC(=O)[C@H](CC(N)=O)NC(=O)[C@@H](NC(=O)CNC(=O)[C@H](Cc4ccccc4)NC(=O)CN)CSSC[C@H](NC(=O)[C@H](Cc4ccc(O)cc4)NC(=O)CNC(=O)CNC(=O)[C@H](CCCCN)NC(=O)[C@H](Cc4ccc(O)cc4)NC(=O)CNC(=O)[C@H](CCCCN)NC1=O)C(=O)N[C@@H](C)C(=O)N[C@@H](CCCCN)C(=O)NCC(=O)NCC(=O)N[C@@H](Cc1ccccc1)C(=O)N[C@@H](C(C)C)C(=O)N3)C(=O)N[C@@H](Cc1c[nH]cn1)C(=O)N[C@@H](CC(N)=O)C(=O)N[C@@H](Cc1c[nH]cn1)C(=O)N2", "test system": "USA300 MRSA", "conditions": "24 h", "quantity": "MBC", "value": "0.5 µM"}
{"SMILES": "CC(N)C(O)CCCCCCCCCCCCCCC(=O)CCCCCCCC(O)C(C)N (centres unmarked)", "assay": "resazurin", "test system": "ATCC 12600", "conditions": "50 µM", "quantity": "growth inhibition", "value": "-6 ± 6.91%"}
{"SMILES": "COc1cc(OC)cc(B(O)O)c1", "assay": "crystal violet", "test system": "USA300 wild type", "conditions": "50 µM", "scale": "baseline: wild type untreated", "quantity": "biofilm formation", "value": "25% and 26.1% and 20.3%"}
{"SMILES": "CC(C)C[C@H](NC(=O)[C@H](CC(C)C)NC(=O)[C@H](CCCCN)NC(=O)[C@H](Cc1ccccc1)NC(=O)[C@@H](NC(=O)[C@H](CCCNC(=N)N)NC(=O)[C@@H](N)CCCCN)C(C)C)C(=O)N[C@@H](CCCCN)C(=O)N[C@@H](CCCNC(=N)N)C(=O)N[C@@H](Cc1ccc(O)cc1)C(=O)N[C@@H](Cc1c[nH]c2ccccc12)C(=O)N[C@@H](CCCNC(=N)N)C(=O)N[C@@H](CCC(N)=O)C(=O)N[C@@H](CC(C)C)C(=O)N[C@@H](CCCCN)C(=O)N[C@@H](CCCCN)C(=O)N1CCC[C@H]1C(=O)N[C@H](C(=O)N[C@@H](CCCNC(=N)N)C(=O)NCCOCCOCC(=O)O)C(C)C", "test system": "RPMI-1640 10% FBS", "conditions": "2× MIC, 37 °C", "quantity": "time to complete killing", "value": "≤ 60 min"}
{"SMILES": "OB(O)c1ccc(C(F)(F)F)s1", "assay": "OD600", "test system": "USA300 fphE::Tn transposon mutant", "conditions": "5 µM", "scale": "baseline: wild type", "quantity": "growth", "value": "61.4% and 65% and 83.3% and 79.3% and 80.5% and 91.6%"}
{"SMILES": "CC[C@H](C)[C@H](NC(=O)[C@H](CC(C)C)NC(=O)[C@H](CC(=O)O)NC(=O)[C@H](CCCNC(=N)N)NC(=O)[C@H](Cc1c[nH]c2ccccc12)NC(=O)[C@@H](N)CC(C)C)C(=O)N[C@@H](CS)C(=O)N[C@@H](CC(C)C)C(=O)N[C@@H](CS)C(=O)N[C@@H](CCCNC(=N)N)C(=O)N[C@@H](CC(N)=O)C(=O)N[C@@H](CCCNC(=N)N)C(=O)N[C@@H](CCCNC(=N)N)C(=O)N[C@@H](CS)C(=O)N[C@@H](CC(N)=O)C(=O)N[C@@H](CCCNC(=N)N)C(=O)NCC(=O)N[C@@H](CCC(N)=O)C(=O)N[C@@H](CC(C)C)C(=O)N[C@@H](Cc1ccccc1)C(=O)N1CCC[C@H]1C(=O)NCC(=O)N[C@@H](Cc1c[nH]c2ccccc12)C(=O)N[C@@H](CS)C(=O)N1CCC[C@H]1C(=O)NCC(=O)N[C@@H](Cc1c[nH]c2ccccc12)C(=O)N[C@@H](Cc1c[nH]c2ccccc12)C(=O)N[C@@H](CC(C)C)C(=O)N[C@@H](CCCNC(=N)N)C(=O)N[C@@H](CS)C(=O)N[C@@H](CS)C(=O)N[C@@H](CCCNC(=N)N)C(=O)N[C@@H](CCCNC(=N)N)C(N)=O", "conditions": "50 µg/mL, before trypsin treatment", "quantity": "bactericidal rate", "value": "100%"}
{"SMILES": "CC(C)[C@H]1NC(=O)CNC(=O)[C@H](CO)NC(=O)[C@@H](Cc2c(-c3ccc(-c4ccc5ccccc5c4)cc3)[nH]c3ccccc23)NC(=O)[C@@H](CO)NC(=O)[C@@H](C(C)C)NC(=O)[C@H](Cc2ccccc2)NC1=O", "assay": "broth dilution", "quantity": "MIC90", "value": "> 50 µM"}
{"SMILES": "N=C(N)NCCC[C@H](NC(=O)[C@H](CCCNC(=N)N)NC(=O)[C@H](CCCNC(=N)N)NC(=O)[C@H](CCC(N)=O)NC(=O)[C@H](CCCNC(=N)N)NC(=O)[C@H](CCCNC(=N)N)NC(=O)[C@H](CCCCN)NC(=O)[C@H](CCCCN)NC(=O)[C@H](CCCNC(=N)N)NC(=O)CNC(=O)[C@H](Cc1ccc(O)cc1)NC(=O)[C@H](Cc1ccccc1)NC(=O)[C@H](Cc1ccccc1)NC(=O)[C@H](Cc1ccccc1)NC(=O)OCC1c2ccccc2-c2ccccc21)C(=O)O", "test system": "29213, C57BL/6 mouse peritonitis-sepsis, liver, kidney, spleen, lung", "conditions": "10 mg/kg, 48 h", "scale": "baseline: control", "quantity": "bacterial load", "value": "decreased"}
{"SMILES": "CCCC(=O)OCCSCCC(=O)N[C@H](CCN)C(=O)N[C@@H](CCN)C(=O)N[C@@H](CCN)C(=O)N[C@@H](CC(C)C)C(=O)N[C@H](Cc1ccccc1)C(=O)N[C@@H](CCN)C(=O)N[C@@H](CCN)C(=O)N[C@@H](CC(C)C)C(N)=O", "test system": "ATCC 6538", "conditions": "24 h, 37 °C", "quantity": "MBC", "value": "128 µM"}
{"SMILES": "O=CCNCCOn1c(=O)n(OCCNCCO)c(=O)n(OCCNCCOn2c(=O)n(OCCNCCO)c(=O)n(OCCNCCO)c2=O)c1=O", "assay": "broth microdilution", "quantity": "MLC", "value": "4 ± 1 µg/mL"}
{"SMILES": "O[C@]12C=C(c3nccc4c3[nH]c3ccccc34)[C@@H]3CCN(CCCC/C=C\\CC1)C[C@@]31C[C@@H]3/C=C\\CCCCN3[C@H]12", "assay": "growth", "test system": "ATCC 43300, MRSA", "conditions": "5% bovine calf serum", "quantity": "IC50", "value": "1.15 µg/mL"}
{"SMILES": "CC(C)[C@H]1NC(=O)[C@H](Cc2ccc(O)cc2)NC(=O)[C@@H](C(C)C)NC(=O)[C@@H](C)NC(=O)[C@H](CO)NC(=O)[C@@H](Cc2c(-c3ccc(-c4ccc5ccccc5c4)cc3)[nH]c3ccccc23)NC(=O)[C@@H](CO)NC1=O", "assay": "broth dilution", "quantity": "MIC90", "value": "> 50 µM"}
{"SMILES": "CC[C@H](C)[C@@H]1NC(=O)[C@H](CCC(N)=O)NC(=O)[C@@H](NC(=O)[C@H](CC(C)C)NC(=O)[C@H](C)NC(=O)[C@H](C)NC(=O)[C@@H]2CCCN2C(=O)[C@H](CC(C)C)NC(=O)[C@@H](NC(=O)[C@H](CCCCN)NC(=O)[C@H](C)NC(=O)[C@H](C)NC(=O)[C@@H](NC(=O)[C@H](CCCCN)NC(=O)[C@H](CC(C)C)NC(=O)[C@@H](NC(=O)[C@@H](NC(=O)CNC(=O)[C@H](CC(C)C)NC(=O)[C@@H](N)Cc2ccccc2)[C@@H](C)O)C(C)C)C(C)C)C(C)C)CSSC[C@@H](C(=O)O)NC(=O)[C@H](CCCCN)NC(=O)[C@H](CCCCN)NC(=O)[C@H](Cc2ccccc2)NC1=O", "assay": "time-kill", "test system": "ATCC 6538", "conditions": "2-4 x MIC", "quantity": "time to eradication", "value": "≤ 120 min"}
{"SMILES": "Cc1ccc(-c2nc3ccc(C)cn3c2CC(=O)NCc2ccc(N(C)C)cc2)cc1", "assay": "microbial growth", "test system": "SG511", "conditions": "2 mM, 20 h", "quantity": "inhibition zone", "value": "15 mm"}
{"SMILES": "CC[C@H](C)[C@@H]1NC(=O)[C@H](CO)NC(=O)[C@H](CCCCN)NC(=O)[C@@H]2CSSC[C@@H](C(=O)N[C@@H](Cc3ccc(O)cc3)C(N)=O)NC(=O)[C@H](CCCCN)NC(=O)[C@@H]3CSSC[C@H](NC(=O)[C@H](CCCNC(=N)N)NC(=O)[C@H](CC(C)C)NC(=O)[C@H](CC(=O)O)NC(=O)[C@H](CC(=O)O)NC(=O)[C@H](CCC(=O)O)NC(=O)[C@H](CC(N)=O)NC(=O)[C@H](Cc4c[nH]c5ccccc45)NC(=O)C(C)(CC)NC(=O)CNC(=O)[C@H](CC(N)=O)NC(=O)[C@@H](NC(=O)CNC(=O)[C@H](Cc4ccccc4)NC(=O)CN)CSSC[C@H](NC(=O)[C@H](Cc4ccc(O)cc4)NC(=O)CNC(=O)CNC(=O)[C@H](CCCCN)NC(=O)[C@H](Cc4ccc(O)cc4)NC(=O)[C@H]4CCCN4C(=O)[C@@H]4CCCN4C1=O)C(=O)N[C@@H](C)C(=O)N[C@@H](CCCCN)C(=O)N1CCC[C@@H]1C(=O)NCC(=O)N[C@@H](Cc1ccccc1)C(=O)N[C@@H](C(C)C)C(=O)N3)C(=O)N[C@@H](Cc1c[nH]cn1)C(=O)N[C@@H](CC(N)=O)C(=O)N[C@@H](Cc1c[nH]cn1)C(=O)N2 (some centres unmarked)", "test system": "ATCC 49775", "conditions": "24 h", "quantity": "MBC", "value": "2 µM"}
